Published values collected from several papers.
Lines come from different studies, so protocols differ. “And” joins repeats or separate records; there may be more than shown. ± marks the error that the study gave.
PPM1D: Protein phosphatase 1D (PPM1D, Homo sapiens, UniProt O15297)
Sequence of UniProt O15297 (whole entry, looked up): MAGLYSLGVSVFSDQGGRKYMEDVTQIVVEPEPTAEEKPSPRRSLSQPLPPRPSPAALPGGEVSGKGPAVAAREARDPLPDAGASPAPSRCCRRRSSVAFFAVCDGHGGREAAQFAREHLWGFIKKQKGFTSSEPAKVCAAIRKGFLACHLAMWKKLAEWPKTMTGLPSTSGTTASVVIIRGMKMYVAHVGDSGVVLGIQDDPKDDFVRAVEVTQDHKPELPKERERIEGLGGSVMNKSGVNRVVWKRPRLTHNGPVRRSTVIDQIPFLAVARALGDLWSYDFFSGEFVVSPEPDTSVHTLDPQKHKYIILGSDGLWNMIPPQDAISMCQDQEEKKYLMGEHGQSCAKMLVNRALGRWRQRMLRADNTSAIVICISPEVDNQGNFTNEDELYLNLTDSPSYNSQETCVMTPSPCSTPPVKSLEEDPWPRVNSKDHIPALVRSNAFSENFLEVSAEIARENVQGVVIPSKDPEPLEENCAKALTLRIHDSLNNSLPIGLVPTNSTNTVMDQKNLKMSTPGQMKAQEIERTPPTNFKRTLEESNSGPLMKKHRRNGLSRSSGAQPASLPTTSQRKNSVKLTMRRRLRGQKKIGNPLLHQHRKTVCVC
TMEM97: Sigma intracellular receptor 2 (TMEM97, Homo sapiens, UniProt Q5BJF2)
Sequence of UniProt Q5BJF2 (whole entry, looked up): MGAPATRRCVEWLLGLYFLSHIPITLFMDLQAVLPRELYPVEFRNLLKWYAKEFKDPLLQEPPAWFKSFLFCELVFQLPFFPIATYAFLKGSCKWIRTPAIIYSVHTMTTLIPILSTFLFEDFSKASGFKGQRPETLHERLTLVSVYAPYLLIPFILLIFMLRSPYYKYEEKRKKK
PPARG: Peroxisome proliferator-activated receptor gamma (PPARG, Homo sapiens, UniProt P37231)
Sequence of UniProt P37231 (whole entry, looked up): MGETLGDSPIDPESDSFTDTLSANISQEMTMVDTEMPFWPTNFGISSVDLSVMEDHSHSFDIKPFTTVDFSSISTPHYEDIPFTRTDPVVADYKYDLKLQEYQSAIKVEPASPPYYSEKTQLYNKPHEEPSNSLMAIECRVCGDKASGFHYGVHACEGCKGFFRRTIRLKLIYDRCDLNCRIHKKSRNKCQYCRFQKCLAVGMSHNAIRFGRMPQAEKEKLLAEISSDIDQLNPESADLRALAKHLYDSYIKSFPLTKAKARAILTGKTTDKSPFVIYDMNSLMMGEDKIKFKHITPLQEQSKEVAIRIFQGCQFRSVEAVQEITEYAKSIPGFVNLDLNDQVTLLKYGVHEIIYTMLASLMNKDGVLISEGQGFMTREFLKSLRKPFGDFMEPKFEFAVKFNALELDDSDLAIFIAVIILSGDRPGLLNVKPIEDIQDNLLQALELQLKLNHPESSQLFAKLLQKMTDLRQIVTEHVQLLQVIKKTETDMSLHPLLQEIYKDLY
RMS3 S96C: RMS3 (Lathyrus oleraceus, UniProt A0A109QYD3, S96C)
Sequence of UniProt Q9SZU7 (whole entry, unmodified, looked up): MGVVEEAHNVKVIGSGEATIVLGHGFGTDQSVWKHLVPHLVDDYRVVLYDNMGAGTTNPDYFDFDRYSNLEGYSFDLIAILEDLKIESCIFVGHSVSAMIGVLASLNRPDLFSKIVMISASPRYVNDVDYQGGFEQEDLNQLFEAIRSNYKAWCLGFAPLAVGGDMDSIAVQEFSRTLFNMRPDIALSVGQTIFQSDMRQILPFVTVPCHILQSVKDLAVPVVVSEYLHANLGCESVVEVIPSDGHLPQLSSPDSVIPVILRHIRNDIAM
Sequence of UniProt A0A109QYD3 (whole entry, unmodified, looked up): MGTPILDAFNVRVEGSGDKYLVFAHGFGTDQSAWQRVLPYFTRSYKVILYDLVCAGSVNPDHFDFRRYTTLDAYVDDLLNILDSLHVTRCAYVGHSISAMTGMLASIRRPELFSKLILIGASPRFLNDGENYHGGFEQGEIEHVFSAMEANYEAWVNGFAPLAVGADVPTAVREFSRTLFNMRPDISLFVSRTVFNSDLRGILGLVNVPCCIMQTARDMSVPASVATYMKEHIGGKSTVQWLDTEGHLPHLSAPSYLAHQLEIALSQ
Sequence of UniProt P08191 (whole entry, looked up): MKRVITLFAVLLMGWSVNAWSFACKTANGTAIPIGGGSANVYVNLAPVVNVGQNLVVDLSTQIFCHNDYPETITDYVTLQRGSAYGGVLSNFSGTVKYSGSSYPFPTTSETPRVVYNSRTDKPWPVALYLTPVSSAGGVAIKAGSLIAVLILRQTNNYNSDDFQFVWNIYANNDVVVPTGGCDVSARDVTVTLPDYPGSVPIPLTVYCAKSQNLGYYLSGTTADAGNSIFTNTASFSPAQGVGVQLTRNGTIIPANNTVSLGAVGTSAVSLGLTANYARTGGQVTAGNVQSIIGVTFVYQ
Sequence of UniProt Q9Y2K6 (whole entry, looked up): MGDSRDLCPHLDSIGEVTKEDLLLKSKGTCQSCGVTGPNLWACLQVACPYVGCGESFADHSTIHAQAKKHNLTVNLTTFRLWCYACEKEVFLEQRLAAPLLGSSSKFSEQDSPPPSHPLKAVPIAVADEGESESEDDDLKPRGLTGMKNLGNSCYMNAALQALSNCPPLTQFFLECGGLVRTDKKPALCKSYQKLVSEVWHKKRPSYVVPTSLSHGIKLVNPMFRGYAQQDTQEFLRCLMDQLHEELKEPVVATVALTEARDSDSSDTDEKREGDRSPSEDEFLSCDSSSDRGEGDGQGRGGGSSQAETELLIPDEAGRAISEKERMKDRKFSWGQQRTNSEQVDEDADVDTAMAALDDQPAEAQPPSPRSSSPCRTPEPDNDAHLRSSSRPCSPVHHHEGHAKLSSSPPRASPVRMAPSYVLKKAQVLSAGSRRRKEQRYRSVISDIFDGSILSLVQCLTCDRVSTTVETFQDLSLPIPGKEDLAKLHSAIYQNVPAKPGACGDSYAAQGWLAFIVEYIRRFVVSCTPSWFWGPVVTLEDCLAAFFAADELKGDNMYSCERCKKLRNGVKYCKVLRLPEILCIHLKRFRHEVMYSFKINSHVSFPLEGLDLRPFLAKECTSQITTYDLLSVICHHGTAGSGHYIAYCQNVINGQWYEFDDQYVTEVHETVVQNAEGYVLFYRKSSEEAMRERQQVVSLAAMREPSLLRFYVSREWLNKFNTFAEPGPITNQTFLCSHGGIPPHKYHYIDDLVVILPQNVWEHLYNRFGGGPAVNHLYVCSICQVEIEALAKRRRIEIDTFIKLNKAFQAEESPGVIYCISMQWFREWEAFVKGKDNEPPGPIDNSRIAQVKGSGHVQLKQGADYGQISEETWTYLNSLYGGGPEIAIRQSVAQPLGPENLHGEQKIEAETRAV
Sequence of UniProt P20782 (whole entry, unmodified, looked up): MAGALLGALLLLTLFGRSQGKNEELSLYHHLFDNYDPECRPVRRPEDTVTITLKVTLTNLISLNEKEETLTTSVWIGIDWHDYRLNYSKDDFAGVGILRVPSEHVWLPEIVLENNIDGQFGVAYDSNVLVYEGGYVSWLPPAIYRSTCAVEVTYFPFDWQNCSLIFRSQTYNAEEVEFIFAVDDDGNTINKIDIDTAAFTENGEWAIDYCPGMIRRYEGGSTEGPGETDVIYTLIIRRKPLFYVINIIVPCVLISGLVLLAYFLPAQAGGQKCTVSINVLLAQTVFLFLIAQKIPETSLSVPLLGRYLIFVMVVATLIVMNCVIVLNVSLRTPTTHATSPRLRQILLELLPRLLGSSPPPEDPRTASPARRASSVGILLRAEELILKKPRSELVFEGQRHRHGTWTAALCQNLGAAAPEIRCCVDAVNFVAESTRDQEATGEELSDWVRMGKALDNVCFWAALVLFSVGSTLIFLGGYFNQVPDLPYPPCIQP
Sequence of UniProt P02716 (whole entry, unmodified, looked up): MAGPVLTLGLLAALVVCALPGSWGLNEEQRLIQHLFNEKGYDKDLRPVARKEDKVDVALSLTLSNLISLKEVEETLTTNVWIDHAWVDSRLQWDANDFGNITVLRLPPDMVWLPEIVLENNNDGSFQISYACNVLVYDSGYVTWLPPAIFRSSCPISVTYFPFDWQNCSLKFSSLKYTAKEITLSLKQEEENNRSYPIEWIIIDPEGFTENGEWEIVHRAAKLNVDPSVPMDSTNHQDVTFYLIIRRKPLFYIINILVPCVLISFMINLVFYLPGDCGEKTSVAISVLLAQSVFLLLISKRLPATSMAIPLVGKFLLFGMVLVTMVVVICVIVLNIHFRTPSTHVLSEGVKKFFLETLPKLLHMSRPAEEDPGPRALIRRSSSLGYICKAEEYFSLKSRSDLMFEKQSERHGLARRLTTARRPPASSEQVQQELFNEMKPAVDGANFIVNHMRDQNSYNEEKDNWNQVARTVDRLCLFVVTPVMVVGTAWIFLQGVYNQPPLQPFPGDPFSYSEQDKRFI
Sequence of UniProt P04756 (whole entry, unmodified, looked up): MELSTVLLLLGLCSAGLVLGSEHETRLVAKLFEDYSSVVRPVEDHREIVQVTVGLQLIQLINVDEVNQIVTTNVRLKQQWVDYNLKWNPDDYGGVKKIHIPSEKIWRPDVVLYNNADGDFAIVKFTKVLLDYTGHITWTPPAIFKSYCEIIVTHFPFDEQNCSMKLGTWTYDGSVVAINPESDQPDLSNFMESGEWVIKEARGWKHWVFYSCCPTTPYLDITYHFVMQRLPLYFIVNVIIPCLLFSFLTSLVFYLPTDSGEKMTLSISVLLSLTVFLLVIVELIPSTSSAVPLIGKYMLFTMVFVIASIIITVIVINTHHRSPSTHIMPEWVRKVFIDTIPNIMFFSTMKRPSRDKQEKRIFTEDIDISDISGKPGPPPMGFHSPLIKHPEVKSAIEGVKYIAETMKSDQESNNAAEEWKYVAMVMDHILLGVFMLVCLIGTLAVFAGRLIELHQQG
Sequence of UniProt O75716 (whole entry, looked up): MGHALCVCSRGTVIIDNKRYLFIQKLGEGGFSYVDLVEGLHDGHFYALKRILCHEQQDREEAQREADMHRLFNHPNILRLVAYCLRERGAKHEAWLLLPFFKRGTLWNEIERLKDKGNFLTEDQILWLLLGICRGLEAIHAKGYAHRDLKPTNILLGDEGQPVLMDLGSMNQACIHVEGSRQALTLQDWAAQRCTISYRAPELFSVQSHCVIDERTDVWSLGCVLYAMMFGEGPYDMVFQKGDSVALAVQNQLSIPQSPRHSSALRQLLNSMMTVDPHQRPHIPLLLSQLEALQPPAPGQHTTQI

CN(C)c1ccc2c(-c3cc(C(=O)NCCNC(=O)[C@H](CC4CCCCC4)NC(=O)c4ccc(CNc5ccccn5)s4)ccc3C(=O)O)c3ccc(=[N+](C)C)cc-3oc2c1  Kd (PPM1D; cell-free assay, FP): 0.193 µM
C[C@H](NC(=O)[C@H](C)NC(=O)[C@H](C)NC(=O)[C@H](Cc1c[nH]cn1)NC(=O)[C@H](Cc1c[nH]cn1)NC(=O)[C@H](CCCCN)NC(=O)[C@H](CCC(=O)O)NC(=O)[C@H](Cc1c[nH]cn1)NC(=O)[C@H](Cc1ccccc1)NC(=O)[C@H](CCCCN)NC(=O)[C@H](CCCNC(=N)N)NC(=O)[C@H](CCCNC(=N)N)NC(=O)[C@H](Cc1ccc(O)cc1)NC(=O)CN)C(=O)N[C@@H](C)C(=O)N[C@@H](C)C(=O)N1CCC[C@H]1C(=O)N[C@@H](Cc1ccccc1)C(=O)O  Kd (TMEM97; SPR; pH 7.4, 25 °C): 22.7 ± 5.3 µM
Cc1c(Cc2ccc(Cl)c(O[C@H](C)C(=O)O)c2)c2ccc(C(=O)N[C@@H](C)c3ccc(C(C)(C)C)cc3)cc2n1C  Kd (PPARG; ligand displacement, TR-FRET): 0.000781 µM
O=C(NS(=O)(=O)c1cccs1)c1cc2ccccc2n1Cc1ccc(Br)c2ccccc12  Kd (SLC2A9 (Homo sapiens, UniProt Q9NRM0); binding): 6.37 µM
Cc1c(Cc2ccc(Cl)c(O[C@@H](C)C(=O)O)c2)c2ccc(C(=O)N[C@@H](C)c3ccc(C(C)(C)C)cc3)cc2n1CC1CC1  Kd (PPARG; ligand displacement, TR-FRET): 0.000124 µM
N=C(N)NCCC[C@H](NC(=O)[C@H](Cc1ccc(O)cc1)NC(=O)CN)C(=O)N[C@@H](CCCNC(=N)N)C(=O)N[C@@H](CCCCN)C(=O)N[C@@H](Cc1ccccc1)C(=O)N[C@@H](Cc1c[nH]cn1)C(=O)N[C@@H](CCC(=O)O)C(=O)N[C@@H](CCCCN)C(=O)N[C@@H](Cc1c[nH]cn1)C(=O)N[C@@H](Cc1c[nH]cn1)C(=O)O  Kd (TMEM97; SPR; pH 7.4, 25 °C): 9.32 ± 2.17 µM
CC1=C(C)[C@@H](Oc2c(F)cc3c(C)cc(=O)oc3c2F)OC1=O  Kd (RMS3 S96C; binding, fluorescence): 516 µM
COC(=O)CCCNC(=O)c1cc(S(N)(=O)=O)c(Cl)cc1NC1CCCCC1  Kd (CA13 (Homo sapiens, UniProt Q8N1Q1); pH 7): 2 µM
N#Cc1cnc2sc(C(=O)O)cc2c1N1CCc2[nH]nc(C(=O)N[C@@H](CC(=O)NCCOCCN3CCOCC3)c3cccc(Br)c3)c2C1  Kd (Interleukin-1 receptor-like 2, D1-D2 domains (IL1RL2, Homo sapiens, UniProt Q9HB29); binding, surface plasmon resonance; IL-36R D1-D2 domains): 0.072 µM
Cc1c(Cc2cc(F)cc(OC(C)(C)C(=O)O)c2)c2ccc(C(=O)N[C@@H](C)c3cccc(C(C)(C)C)c3)cc2n1CC(C)C  Kd (PPARG; ligand displacement, TR-FRET): 0.000761 µM
CCCCCCCO[C@H]1CO[C@H](CO)[C@@H](O)[C@H](O)[C@@H]1O  Kd (Type 1 fimbrin D-mannose specific adhesin, lectin domain (fimH, Escherichia coli K-12, UniProt P08191); binding, isothermal titration calorimetry; 25 °C, individual titrations): 0.264 µM and 0.276 µM
CC(C)C[C@@H]1NC(=O)[C@@H](NC(=O)[C@H](C)N)CSCCC(=O)N2CN3CN(C2)C(=O)CCSC[C@H](NC(=O)[C@@H]2CCCN2C(=O)[C@H](CO)NC(=O)[C@H](Cc2ccc(O)cc2)NC1=O)C(=O)N[C@@H](Cc1c[nH]c2ccccc12)C(=O)N[C@@H](Cc1c[nH]cn1)C(=O)N1CCC[C@H]1C(=O)N[C@@H](CC(C)C)C(=O)N[C@@H](CC(N)=O)C(=O)N[C@@H](CC(=O)O)C(=O)N[C@H](C(=O)N[C@@H](C)C(=O)N(C)CC(=O)N(C)CC(=O)N(C)CC(=O)N(C)CC(=O)N(C)CC(=O)N(C)CC(=O)N[C@@H](CCCCNC(=O)CCCC[C@@H]1SC[C@@H]2NC(=O)N[C@@H]21)C(N)=O)CSCCC3=O  Kd (Tumor necrosis factor receptor superfamily member 4, extracellular domain (TNFRSF4, Homo sapiens, UniProt P43489); binding, surface plasmon resonance): 0.637 µM
CC1=C[C@H](O/C=C2/C(=O)O[C@H]3c4ccccc4C[C@@H]23)OC1=O (racemic)  Kd (RMS3 S96C; binding, fluorescence): 148 µM
Cn1ncc2cc(-c3cncc(Cl)c3N3CCC4(CCNC4=O)CC3)ccc21  Kd (STK16 (Homo sapiens, UniProt O75716); cell-free assay; lysate): 19.3 µM
Cc1c(Cc2ccc(Cl)c(OC(C)C(=O)O)c2)c2ccc(C(=O)NC(C)c3ccc(C(C)(C)C)cc3)cc2n1CC1CCC1 (stereo not drawn)  Kd (PPARG; ligand displacement, TR-FRET): 0.000236 µM
COc1ccc(-c2ccccc2)cc1NS(=O)(=O)c1cc(Cl)cc(Cl)c1O  Kd (Triggering receptor expressed on myeloid cells 2 (Homo sapiens, UniProt Q9NZC2); binding, SPR): 47.8 µM
C[C@H](NC(=O)[C@H](C)NC(=O)[C@H](CCCNC(=N)N)NC(=O)[C@H](Cc1ccc(O)cc1)NC(=O)CN)C(=O)N[C@@H](C)C(=O)N[C@@H](Cc1c[nH]cn1)C(=O)N[C@@H](CCC(=O)O)C(=O)N[C@@H](CCCCN)C(=O)N[C@@H](Cc1c[nH]cn1)C(=O)N[C@@H](Cc1c[nH]cn1)C(=O)N[C@@H](CO)C(=O)N[C@@H](Cc1c[nH]cn1)C(=O)N[C@@H](CCCNC(=N)N)C(=O)N[C@@H](CCC(=O)O)C(=O)N[C@@H](Cc1ccccc1)C(=O)N1CCC[C@H]1C(=O)N[C@@H](Cc1ccccc1)C(=O)O  Kd (TMEM97; SPR; pH 7.4, 25 °C): 10.1 ± 1.8 µM
CC(CC1CCCCC1)Nc1nn2c(=O)ccnc2s1 (stereo not drawn)  Kd (PPM1D; binding): 1.1 µM
Cc1c[nH]c2nccc(-c3ccc(C(=O)N[C@@H]4c5c(F)cc(C(F)F)cc5C[C@@H]4O)cn3)c12  Kd (MAP2K3 (Homo sapiens, UniProt P46734); binding, competition with immobilised ligand): 0.11 µM
Cc1c(Cc2cccc(OC(C)(C)C(=O)O)c2)c2ccc(C(=O)N[C@@H](C)c3cccc(C(C)(C)C)c3)cc2n1CC(C)C  Kd (PPARG; ligand displacement, TR-FRET): 0.000742 µM
N=C(N)NCCC[C@H](N)C(=O)N[C@@H](CCCCN)C(=O)N[C@@H](Cc1ccccc1)C(=O)N[C@@H](Cc1c[nH]cn1)C(=O)N[C@@H](CCC(=O)O)C(=O)N[C@@H](CCCCN)C(=O)N[C@@H](Cc1c[nH]cn1)C(=O)N[C@@H](Cc1c[nH]cn1)C(=O)O  Kd (TMEM97; SPR; pH 7.4, 25 °C): 22.1 ± 5.1 µM
Cc1cccc2c1N(C(=O)n1ccnn1)CC2  Kd (KAI2 (Arabidopsis thaliana, UniProt Q9SZU7, F157A); ITC; F157A mutant): 246 µM and 424 µM and 300 µM
Cc1c(Cc2cc(F)cc(OC(C)(C)C(=O)O)c2)c2ccc(C(=O)N[C@@H](C)c3ccc(C(C)(C)C)cc3)cc2n1CC1CCC1  Kd (PPARG; ligand displacement, TR-FRET): 0.00147 µM
O=C(O)CCC(=O)c1cccc(NS(=O)(=O)c2c[nH]c3ncccc23)c1  Kd (Ubiquitin carboxyl-terminal hydrolase 20, ZnF-UBD domain (USP20, Homo sapiens, UniProt Q9Y2K6)): 706 µM
N=C(N)NCCC[C@H](NC(=O)[C@H](Cc1c[nH]cn1)NC(=O)[C@H](CO)NC(=O)[C@H](Cc1c[nH]cn1)NC(=O)[C@H](Cc1c[nH]cn1)NC(=O)[C@H](CCCCN)NC(=O)[C@H](CCC(=O)O)NC(=O)[C@H](Cc1c[nH]cn1)NC(=O)[C@H](Cc1ccccc1)NC(=O)[C@H](CCCCN)NC(=O)[C@@H](N)CCCNC(=N)N)C(=O)N[C@@H](CCC(=O)O)C(=O)N[C@@H](Cc1ccccc1)C(=O)O  Kd (TMEM97; SPR; pH 7.4, 25 °C): 3.13 ± 0.33 µM
CC(C)CC(NC(=O)c1ccc(Cl)cc1)C(=O)Nc1ccc(S(N)(=O)=O)cc1 (stereo not drawn)  Kd (PPM1D; binding): 6.8 µM
Cc1c(Cc2cc(F)cc(OC(C)(C)C(=O)O)c2)c2ccc(C(=O)N[C@@H](C)c3cc(F)cc(C(C)(C)C)c3)cc2n1CC1CCC1  Kd (PPARG; ligand displacement, TR-FRET): 0.00109 µM
C=CC(=O)N1C[C@H](C)N(c2nc(OC[C@@]34CCCN3C[C@H](F)C4)nc3c(F)c(-c4ccc(F)c5sc(N)c(C#N)c45)c(C(F)(F)F)cc23)C[C@H]1C  Kd (GTPase KRas, GppNHp-bound (KRAS, Homo sapiens, UniProt P01116, A146T)): 3.32 µM and 3.34 µM
CC(C)Cn1cc(Cc2cccc(OC(C)(C)C(=O)O)c2)c2cc(F)c(C(=O)N[C@@H](C)c3cccc(C(C)(C)C)c3)cc21  Kd (PPARG; ligand displacement, TR-FRET): 0.0042 µM
C[N+]1(C)CCCC1  Kd (Chrnd/Chrna1/Chrne (Mus musculus, UniProt P02716+P04756+P20782, G173P/S470W); single-channel kinetics; P chain side site): 203 µM

Excerpt of the above:
CC1=C[C@H](O/C=C2/C(=O)O[C@H]3c4ccccc4C[C@@H]23)OC1=O (racemic)  Kd (RMS3 S96C; binding, fluorescence): 148 µM
Cn1ncc2cc(-c3cncc(Cl)c3N3CCC4(CCNC4=O)CC3)ccc21  Kd (STK16 (Homo sapiens, UniProt O75716); cell-free assay; lysate): 19.3 µM
